Experimental data gathered from unrelated publications.
Lines come from different studies, so protocols differ.
Cell line: L929

| Structure (SMILES) | test | setting | measurement | result |
| --- | --- | --- | --- | --- |
| CCCCCCCCC=CCCCCCCCCn1c(-c2cccnc2)nc(-c2ccc(C)cc2)c1-c1ccc(C)cc1 | cell growth or viability, SRB | – | IC50 | 87.6 µM |
| Cc1ccc(C(C)C)cc1.[Cl][Ru]([Cl])[P](CP(c1ccccc1)c1ccccc1)(c1ccccc1)c1ccccc1 | cell growth or viability, trypan blue | 48 h | IC50 | 39.6 µM |
| CCCCCCCCn1c(-c2cccnc2)nc(-c2ccccc2)c1-c1ccccc1 | cell growth or viability, SRB | – | IC50 | 61.7 µM |
| CC(=O)Nc1ccc(OC(=O)CCC(=O)[O][Pt-2]23([O]C(=O)CCC(=O)Oc4ccc(NC(C)=O)cc4)([NH2+][C@@H]4CCCC[C@H]4[NH2+]2)[O]C(=O)C(=O)[O]3)cc1 | cell growth or viability, MTT | 48 h | IC50 | 78 µM |
| Cn1cncn1.[Ru+2].c1cc(-c2ccc3ccccc3n2)nc(-c2ccc3ccccc3n2)c1.c1ccc2cc3nc4c5cccnc5c5ncccc5c4nc3cc2c1 | cell growth or viability, MTT | dark | EC50 | 36 µM |
| CCCCn1c(-c2cccnc2)nc(-c2ccc(C)cc2)c1-c1ccc(C)cc1 | cell growth or viability, SRB | – | IC50 | 48.1 µM |
| COC(=O)c1ccc2c(c1)NC(=O)/C2=C(\Nc1ccc(N(C)C(=O)CN2CCN(CCOCCOCCNC(=O)c3cc(OCc4cn(CCCCN5C[C@@H]6C[C@H]5C(=O)N[C@@H](CC(C)C)C(=O)N[C@@H](CCCNC(=N)N)C(=O)NCC(=O)N[C@@H](CC(=O)O)C(=O)N[C@@H](CC(C)C)C(=O)N6)nn4)cc(OCc4cn(CCCCN5C[C@@H]6C[C@H]5C(=O)N[C@@H](CC(C)C)C(=O)N[C@@H](CCCNC(=N)N)C(=O)NCC(=O)N[C@@H](CC(=O)O)C(=O)N[C@@H](CC(C)C)C(=O)N6)nn4)c3)CC2)cc1)c1ccccc1 | cell internalization, flow cytometry | 5 µM, 24 h | mean fluorescence intensity | decreased |
| C=C(C)C(=O)NCCCCCCCCCCOCc1cn(CCCCCCCCCCNC(=O)C(=C)C)n[n+]1C | cell growth or viability | 72 h | IC50 | 20.4 µM |
| CCCCCCCCCCCCn1c(-c2cccnc2)nc(-c2ccc(C)cc2)c1-c1ccc(C)cc1 | cell growth or viability, SRB | – | IC50 | 284 µM |
| CN1C(=O)N[C@H](Cc2c[nH]c3c(Cl)cccc23)C1=O | necroptosis protection | 16 h, with: TNFα 40 ng/mL | EC50 | 0.112 µM |
| COC(=O)c1ccc(-n2nc(C(F)(F)F)cc2-c2cc(OC)c(OC)c(OC)c2)cc1 | cell growth or viability, SRB | – | IC50 | 14 µM |
| [Cl][Au]1[P](c2ccccc2)(c2ccccc2)C[P](c2ccccc2)(c2ccccc2)[Au]([Cl])[P](c2ccccc2)(c2ccccc2)C[P]1(c1ccccc1)c1ccccc1 | cell growth or viability, trypan blue | 48 h | IC50 | 1.7 µM |
| COc1cc(C(=O)c2[nH]c(N)nc2-c2cccs2)cc(OC)c1OC | cell growth or viability, SRB | – | IC50 | 1.66 µM |

Repeated from above:
| Structure (SMILES) | test | setting | measurement | result |
| --- | --- | --- | --- | --- |
| CN1C(=O)N[C@H](Cc2c[nH]c3c(Cl)cccc23)C1=O | necroptosis protection | 16 h, with: TNFα 40 ng/mL | EC50 | 0.112 µM |
